Measured values collected from several papers.
Each numbered part is a random draw from the data of one study; scales do not carry over between parts.
UniProt P06213, sequence (whole entry, looked up): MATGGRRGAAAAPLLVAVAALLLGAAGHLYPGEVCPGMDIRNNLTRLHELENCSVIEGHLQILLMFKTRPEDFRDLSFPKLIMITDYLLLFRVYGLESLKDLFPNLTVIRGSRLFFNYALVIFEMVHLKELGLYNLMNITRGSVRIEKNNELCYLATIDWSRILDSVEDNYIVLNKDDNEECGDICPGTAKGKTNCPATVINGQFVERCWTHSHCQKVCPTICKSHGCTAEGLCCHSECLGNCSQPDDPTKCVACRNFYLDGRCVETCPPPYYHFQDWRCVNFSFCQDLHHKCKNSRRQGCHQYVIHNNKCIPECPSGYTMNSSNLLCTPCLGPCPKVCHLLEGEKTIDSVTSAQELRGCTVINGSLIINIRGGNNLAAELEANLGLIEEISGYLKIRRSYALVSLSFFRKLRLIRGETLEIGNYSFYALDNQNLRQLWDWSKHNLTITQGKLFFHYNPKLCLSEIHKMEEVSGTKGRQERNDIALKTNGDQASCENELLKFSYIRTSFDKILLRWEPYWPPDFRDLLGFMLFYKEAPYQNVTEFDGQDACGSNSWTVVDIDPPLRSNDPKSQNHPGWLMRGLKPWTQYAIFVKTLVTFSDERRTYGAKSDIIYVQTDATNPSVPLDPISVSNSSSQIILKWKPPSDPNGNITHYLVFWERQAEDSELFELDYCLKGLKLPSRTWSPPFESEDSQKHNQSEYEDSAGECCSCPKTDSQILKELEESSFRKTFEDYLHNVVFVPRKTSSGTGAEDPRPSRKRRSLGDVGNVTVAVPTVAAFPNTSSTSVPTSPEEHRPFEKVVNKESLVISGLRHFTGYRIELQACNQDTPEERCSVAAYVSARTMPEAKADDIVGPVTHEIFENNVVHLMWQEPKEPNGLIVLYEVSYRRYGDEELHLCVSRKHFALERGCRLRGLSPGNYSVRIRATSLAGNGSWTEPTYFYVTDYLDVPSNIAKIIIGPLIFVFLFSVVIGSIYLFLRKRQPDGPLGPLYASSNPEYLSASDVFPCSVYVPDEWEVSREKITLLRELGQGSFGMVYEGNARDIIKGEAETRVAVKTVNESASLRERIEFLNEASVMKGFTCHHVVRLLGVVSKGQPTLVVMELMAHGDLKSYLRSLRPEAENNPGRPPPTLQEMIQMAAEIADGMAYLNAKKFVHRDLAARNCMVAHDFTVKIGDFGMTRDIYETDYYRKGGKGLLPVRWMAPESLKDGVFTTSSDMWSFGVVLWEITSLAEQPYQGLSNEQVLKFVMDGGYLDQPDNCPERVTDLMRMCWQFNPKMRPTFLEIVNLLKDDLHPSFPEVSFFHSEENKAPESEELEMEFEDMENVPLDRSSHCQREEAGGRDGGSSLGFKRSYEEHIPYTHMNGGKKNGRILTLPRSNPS
UniProt P11802, sequence (whole entry, looked up): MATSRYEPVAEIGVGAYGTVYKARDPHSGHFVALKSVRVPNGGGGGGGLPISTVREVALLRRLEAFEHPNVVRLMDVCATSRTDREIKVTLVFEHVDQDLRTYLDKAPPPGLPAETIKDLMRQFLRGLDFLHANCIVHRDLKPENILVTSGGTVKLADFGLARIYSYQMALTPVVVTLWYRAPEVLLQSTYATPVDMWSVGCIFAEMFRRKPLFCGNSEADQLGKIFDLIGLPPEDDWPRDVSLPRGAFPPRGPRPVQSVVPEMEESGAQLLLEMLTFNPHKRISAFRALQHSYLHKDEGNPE
UniProt Q9H4A3, sequence (whole entry, looked up): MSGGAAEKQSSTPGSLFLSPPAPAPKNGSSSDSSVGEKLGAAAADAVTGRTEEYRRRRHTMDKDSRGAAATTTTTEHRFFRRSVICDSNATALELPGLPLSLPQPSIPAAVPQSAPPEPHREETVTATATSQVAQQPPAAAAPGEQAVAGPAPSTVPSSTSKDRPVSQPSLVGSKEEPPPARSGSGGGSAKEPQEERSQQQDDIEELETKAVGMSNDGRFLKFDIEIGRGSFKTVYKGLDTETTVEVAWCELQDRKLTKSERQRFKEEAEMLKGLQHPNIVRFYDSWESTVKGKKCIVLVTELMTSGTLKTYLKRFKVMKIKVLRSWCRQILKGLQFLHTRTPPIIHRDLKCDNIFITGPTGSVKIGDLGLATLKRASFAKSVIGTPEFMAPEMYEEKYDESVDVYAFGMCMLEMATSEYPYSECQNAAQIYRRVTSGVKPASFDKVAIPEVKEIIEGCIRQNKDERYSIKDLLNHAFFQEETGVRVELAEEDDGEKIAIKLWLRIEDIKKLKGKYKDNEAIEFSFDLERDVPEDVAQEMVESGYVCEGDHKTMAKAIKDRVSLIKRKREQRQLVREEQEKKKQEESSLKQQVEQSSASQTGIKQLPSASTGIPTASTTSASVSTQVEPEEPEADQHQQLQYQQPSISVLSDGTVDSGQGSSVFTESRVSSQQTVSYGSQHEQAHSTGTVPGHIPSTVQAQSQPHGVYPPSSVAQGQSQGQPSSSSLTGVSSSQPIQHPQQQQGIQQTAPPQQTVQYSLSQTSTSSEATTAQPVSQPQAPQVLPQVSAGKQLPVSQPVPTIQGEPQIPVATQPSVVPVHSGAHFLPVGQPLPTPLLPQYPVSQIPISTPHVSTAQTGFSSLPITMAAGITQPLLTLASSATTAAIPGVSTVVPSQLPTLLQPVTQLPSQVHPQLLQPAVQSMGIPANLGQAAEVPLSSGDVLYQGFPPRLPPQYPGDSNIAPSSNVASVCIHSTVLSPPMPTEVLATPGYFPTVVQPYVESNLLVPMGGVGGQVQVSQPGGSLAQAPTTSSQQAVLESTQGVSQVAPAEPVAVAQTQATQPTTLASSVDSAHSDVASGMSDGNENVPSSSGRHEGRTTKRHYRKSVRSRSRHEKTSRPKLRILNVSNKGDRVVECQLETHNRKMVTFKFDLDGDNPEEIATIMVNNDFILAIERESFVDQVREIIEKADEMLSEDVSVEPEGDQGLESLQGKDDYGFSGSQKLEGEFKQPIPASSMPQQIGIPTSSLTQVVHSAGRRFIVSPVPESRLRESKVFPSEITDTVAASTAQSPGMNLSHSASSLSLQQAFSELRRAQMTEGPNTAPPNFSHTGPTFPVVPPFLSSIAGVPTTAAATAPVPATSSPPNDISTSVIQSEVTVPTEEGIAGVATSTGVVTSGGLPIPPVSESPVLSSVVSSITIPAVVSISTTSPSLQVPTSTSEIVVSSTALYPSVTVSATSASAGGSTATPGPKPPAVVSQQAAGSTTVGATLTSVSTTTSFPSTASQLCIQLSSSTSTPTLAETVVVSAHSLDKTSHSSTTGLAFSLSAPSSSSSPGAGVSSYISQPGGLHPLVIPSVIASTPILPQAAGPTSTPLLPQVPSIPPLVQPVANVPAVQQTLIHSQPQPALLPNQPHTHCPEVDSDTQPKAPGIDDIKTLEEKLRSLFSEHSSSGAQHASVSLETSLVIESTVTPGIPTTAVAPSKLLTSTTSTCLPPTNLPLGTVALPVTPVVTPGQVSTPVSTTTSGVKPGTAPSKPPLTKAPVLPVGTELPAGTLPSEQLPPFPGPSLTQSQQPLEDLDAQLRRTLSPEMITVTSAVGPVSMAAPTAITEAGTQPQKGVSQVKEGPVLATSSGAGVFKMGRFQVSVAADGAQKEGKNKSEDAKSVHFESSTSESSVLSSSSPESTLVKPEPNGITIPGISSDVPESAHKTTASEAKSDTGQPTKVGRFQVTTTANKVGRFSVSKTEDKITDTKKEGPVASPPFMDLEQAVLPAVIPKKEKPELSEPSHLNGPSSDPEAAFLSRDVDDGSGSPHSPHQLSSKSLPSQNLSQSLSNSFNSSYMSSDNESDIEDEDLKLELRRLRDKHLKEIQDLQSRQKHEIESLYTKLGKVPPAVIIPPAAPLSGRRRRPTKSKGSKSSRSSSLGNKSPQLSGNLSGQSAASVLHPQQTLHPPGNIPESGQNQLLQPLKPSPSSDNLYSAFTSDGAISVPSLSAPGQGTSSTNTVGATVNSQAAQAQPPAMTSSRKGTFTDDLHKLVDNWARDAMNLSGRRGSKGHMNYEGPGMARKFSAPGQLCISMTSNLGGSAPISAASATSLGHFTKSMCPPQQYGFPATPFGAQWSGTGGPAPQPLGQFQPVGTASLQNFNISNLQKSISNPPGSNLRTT
UniProt Q96NX5, sequence (whole entry, looked up): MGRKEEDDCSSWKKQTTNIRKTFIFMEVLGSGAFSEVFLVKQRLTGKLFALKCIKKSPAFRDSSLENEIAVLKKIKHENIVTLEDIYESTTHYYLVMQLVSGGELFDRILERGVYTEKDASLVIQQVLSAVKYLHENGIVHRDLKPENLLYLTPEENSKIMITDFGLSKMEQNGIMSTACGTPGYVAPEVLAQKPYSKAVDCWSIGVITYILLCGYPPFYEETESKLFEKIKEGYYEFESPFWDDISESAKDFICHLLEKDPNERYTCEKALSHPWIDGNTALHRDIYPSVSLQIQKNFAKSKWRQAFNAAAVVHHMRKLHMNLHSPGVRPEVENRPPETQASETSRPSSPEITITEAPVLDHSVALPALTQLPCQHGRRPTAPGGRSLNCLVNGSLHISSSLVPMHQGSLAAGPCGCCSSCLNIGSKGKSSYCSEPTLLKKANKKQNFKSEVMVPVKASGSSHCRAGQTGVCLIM

Sample 1
SMILES: CN([C@@H]1CCc2c(CC(=O)O)c3ccccc3n2C1)S(=O)(=O)c1ccc(F)cc1
Observed: cell-free assay
Method: competition with immobilised ligand
Tested at: 1 µM
Quantity: remaining binding
GRK1 (Homo sapiens, UniProt Q15835): 88%
NTRK3 (Homo sapiens, UniProt Q16288): 100%
WNK1 (Homo sapiens, UniProt Q9H4A3): 96%
MARK1 (Homo sapiens, UniProt Q9P0L2): 100%
CAMK2G (Homo sapiens, UniProt Q13555): 100%
FLT3 (Homo sapiens, UniProt P36888, F691L/ITD): 96%
PIK3C2G (Homo sapiens, UniProt O75747): 95%
CAMK1G (Homo sapiens, UniProt Q96NX5): 100%

Sample 2
Structure (SMILES): COc1ccc(-c2c(Nc3ccccn3)[nH]c3c(C4=CCCCC4)c(-c4ccccc4)nn3c2=O)cc1
Sample: plasma
Route: oral
Quantity: plasma concentration, geometric mean
cancer patients; 50 mg, 4 h post-dose, single dose: 476 ng/mL
human patients; 150 mg once daily, 24 h, cycle 1: 3210 ng/mL
human patients; 400 mg once daily, 0.5 h, cycle 1: 2340 ng/mL
cancer patients; 150 mg, 72 h post-dose, single dose: 202 ng/mL
human patients; 100 mg once daily, 24 h, cycle 1: 2310 ng/mL
LC-MS/MS; human; 50 mg once daily, 8 h, cycle 1: 1590 ng/mL
LC-MS/MS; human; 200 mg twice daily, 2 h: 13100 ng/mL

Sample 3
Target: Casein kinase I isoform gamma-3 (CSNK1G3, Homo sapiens, UniProt Q9Y6M4)
UniProt Q9Y6M4, sequence (whole entry, looked up): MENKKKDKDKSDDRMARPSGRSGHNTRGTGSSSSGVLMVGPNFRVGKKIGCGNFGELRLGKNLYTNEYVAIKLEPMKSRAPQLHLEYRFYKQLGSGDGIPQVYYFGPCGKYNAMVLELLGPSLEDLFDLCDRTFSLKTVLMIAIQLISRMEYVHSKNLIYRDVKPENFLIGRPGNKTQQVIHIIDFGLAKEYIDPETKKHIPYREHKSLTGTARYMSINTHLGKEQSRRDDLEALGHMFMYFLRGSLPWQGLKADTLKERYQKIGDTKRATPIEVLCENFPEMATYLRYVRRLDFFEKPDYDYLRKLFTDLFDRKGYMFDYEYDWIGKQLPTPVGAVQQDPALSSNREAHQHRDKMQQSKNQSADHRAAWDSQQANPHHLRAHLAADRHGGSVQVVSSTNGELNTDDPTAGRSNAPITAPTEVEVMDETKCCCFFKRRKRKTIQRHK
Observed: enzyme activity
Mode: inhibitor
Tested at: 0.5 µM
Baseline: control
Quantity: remaining activity
N#CC(C#N)=C(N)/C(C#N)=C/c1ccc(O)cc1: 100%
CCOC(=O)c1c(C)[nH]c(/C=C2\C(=O)Nc3ccccc32)c1C: 97.9%
O=S(=O)(c1cccc2cnccc12)N1CCCNCC1: 85%
Cc1ccc(Nc2nccc(N(C)c3ccc4c(C)n(C)nc4c3)n2)cc1S(N)(=O)=O: 97.1%
O=C1NC(=O)C(c2cn(CCCO)c3ncccc23)=C1c1cnccn1: 107%
Oc1ccc(-c2nc(-c3ccncc3)c(-c3ccc(F)cc3)[nH]2)cc1: 102%
Cn1sc(=O)n(Cc2ccccc2)c1=O: 114%
COc1ccc(C(=O)Nc2sc3c(c2C(N)=O)CCCC3)cc1OC: 91.7%
O=c1c2ccccc2[nH]c(=S)n1CCN1CCC(=C(c2ccc(F)cc2)c2ccc(F)cc2)CC1: 97.1%
CNC(=O)c1cc(Oc2ccc(NC(=O)Nc3ccc(Cl)c(C(F)(F)F)c3)cc2)ccn1: 99.8%
Cc1cccc(-c2[nH]c(C(C)(C)C)nc2-c2ccc3c(c2)OCO3)n1: 102%
O=C(O)c1ccc2c3c1cccc3c(=O)n1c3ccccc3nc21: 96.9%
COc1cc2ncnc(Nc3ccc(Oc4ccccc4)cc3)c2cc1OC: 99.4%
CO[C@H]1C[C@@H]2CC[C@@H](C)[C@@](O)(O2)C(=O)C(=O)N2CCCC[C@H]2C(=O)O[C@H]([C@H](C)C[C@@H]2CC[C@@H](O)[C@H](OC)C2)CC(=O)[C@H](C)/C=C(\C)[C@@H](O)[C@@H](OC)C(=O)[C@H](C)C[C@H](C)/C=C/C=C/C=C/1C: 108%
COc1cc2nccc(Oc3ccc(NC(=S)NC(=O)c4ccccc4C)cc3)c2cc1OC: 93.3%

Sample 4
SMILES: O=C(Nc1cnn(-c2csc(C(=O)NC3COC3)c2)c1)Nc1ccccc1Cl
Tested at: 5 µM
Quantity: remaining activity
Insulin receptor (INSR, Homo sapiens, UniProt P06213); enzyme activity; baseline: untreated control: 95.6%
EPHA8 (Homo sapiens, UniProt P29322); enzyme activity; baseline: untreated control: 101%
Protein kinase C beta type, isoform beta-II (PRKCB, Homo sapiens, UniProt P05771); kinase activity, kinase panel profiling: 103%
Cyclin-dependent kinase 4, with cyclin D3 (CDK4, Homo sapiens, UniProt P11802); enzyme activity; baseline: untreated control: 96.1%
LTK (Homo sapiens, UniProt P29376); enzyme activity; baseline: untreated control: 94.5%
FGFR2 (Homo sapiens, UniProt P21802); enzyme activity; baseline: untreated control: 94.7%
SRPK2 (Homo sapiens, UniProt P78362); enzyme activity; baseline: untreated control: 95%
STK25 (Homo sapiens, UniProt O00506); enzyme activity; baseline: untreated control: 106%
TBK1 (Homo sapiens, UniProt Q9UHD2); enzyme activity; baseline: untreated control: 99.5%

Repeated from above (sample 2):
human patients; 100 mg once daily, 24 h, cycle 1: 2310 ng/mL
LC-MS/MS; human; 50 mg once daily, 8 h, cycle 1: 1590 ng/mL
LC-MS/MS; human; 200 mg twice daily, 2 h: 13100 ng/mL
